{"data": "Published values gathered from unrelated publications", "note": "Compare with care: the assays were run in different laboratories. ± gives the spread as reported. No end group written: not given here."}
{"Substance": "Cc1cc(-c2ccn3c(-c4ccc(CC(=O)Nc5cccc(C(F)(F)F)c5)c(F)c4)cnc3c2)ccn1", "test system": "human, plasma", "setting": "oral, 50 mg once daily, multiple doses", "measurement": "Tlast", "value": "8 h"}
{"Substance": "CCCC[C@H](NC(C)=O)C(=O)N[C@H]1CCC(=O)NC[C@@H](C(=O)N[C@@H](Cc2c[nH]c3ccccc23)C(N)=O)NC(=O)[C@H](CCCNC(=N)N)NC(=O)[C@@H](Cc2ccccc2)NC(=O)[C@H](Cc2c[nH]cn2)NC1=O", "test system": "female rat, plasma", "setting": "subcutaneous, 1 mg/kg/day, multiple doses, once daily", "measurement": "AUC(0-inf)", "value": "829 ng·h/mL"}
{"Substance": "O=C1C=Cc2c(c(-c3ccco3)cn2S(=O)(=O)c2ccccc2)C1=O", "test": "LC-MS", "test system": "PBS, 20% DMSO", "setting": "2 h", "measurement": "kinetic solubility", "value": "31.2 µM"}
{"Substance": "CC(C)C[C@H](NC(=O)[C@H](CC(C)C)NC(=O)[C@@H](Cc1c[nH]c2ccccc12)NC(=O)[C@@H](NC(=O)[C@@H](Cc1c[nH]c2ccccc12)NC(=O)[C@@H](N)CCCCN)[C@@H](c1ccccc1)c1c[nH]c2ccccc12)C(N)=O", "test": "RP-HPLC Kinetex Biphenyl", "setting": "acetonitrile/water TFA gradient", "measurement": "HPLC retention", "value": "47.9 %B"}
{"Substance": "CC1=C2C[C@H]3[C@@H](CC[C@@H]4C[C@H](NS(C)(=O)=O)CC[C@@]43C)[C@@H]2CC[C@@]2(C1)O[C@@H]1C[C@H](C)CN[C@H]1[C@H]2C", "test system": "patients, plasma", "setting": "oral, 60 mg single, day -7, cycle 1", "measurement": "Cmax", "value": "28.2 ng/mL"}
{"Substance": "COc1nnc2ccc(N3CCC(c4ccc(OCCN5CCN(C)C(=O)[C@H]5C)cc4)CC3)nn12", "test": "population PK model", "test system": "Han Wistar rats, plasma", "setting": "oral", "measurement": "ka", "value": "1.7 h⁻¹"}
{"Substance": "CC(C)=CCC[C@](C)(O[C@@H]1O[C@H](CO[C@@H]2O[C@H](CO)[C@@H](O)[C@H](O)[C@H]2O)[C@@H](O)[C@H](O)[C@H]1O)[C@H]1CC[C@]2(C)[C@@H]1[C@H](O)C[C@@H]1[C@@]3(C)CC[C@H](O[C@@H]4O[C@H](CO)[C@@H](O)[C@H](O)[C@H]4O[C@@H]4O[C@H](CO)[C@@H](O)[C@H](O)[C@H]4O)C(C)(C)[C@@H]3CC[C@]12C", "test system": "rat, extracted plasma QC samples", "setting": "5.0 µg/mL, 24 h, 15 °C, autosampler", "measurement": "post-preparative stability accuracy", "value": "102 ± 7.5%"}
{"Substance": "C[C@]12CC[C@@H]3c4ccc(O)cc4CC[C@H]3[C@@H]1C[C@@H](O)[C@@H]2O", "test": "GC-MS", "test system": "breast cancer women on NSAI, serum", "setting": "vaginal, 0.03 mg, 8 h, day 0", "measurement": "mean serum concentration", "value": "0 ng/mL"}
{"Substance": "Nc1ccn([C@@H]2O[C@H](CO)[C@@H](O)C2(F)F)c(=O)n1", "test system": "THU-treated rat plasma", "setting": "3200.00 ng/mL, -80 to 20 °C, three freeze-thaw cycles, high QC", "measurement": "measured concentration", "value": "2970 ± 150 ng/mL"}
{"Substance": "COc1ccc2cc3[n+](cc2c1OC)CCc1cc2c(cc1-3)OCO2", "test system": "rat plasma QC sample", "setting": "640 ng/mL nominal, 24 h, high QC level autosampler stability", "measurement": "measured concentration", "value": "639 ± 12.4 ng/mL"}
{"Substance": "CCCSc1nc(N[C@@H]2C[C@H]2c2ccc(F)c(F)c2)c2nnn([C@@H]3C[C@H](OCCO)[C@@H](O)[C@H]3O)c2n1", "test system": "male Wistar Han rats, plasma", "setting": "oral, 60 mg/kg/day, week 26, carcinogenicity study", "measurement": "AUC", "value": "98.8 µM·h"}
{"Substance": "C=CC(=O)N(C)CCOc1c(N)ncnc1-c1cc(F)cc(NC(=O)c2ccc(C3CC3)cc2F)c1C", "test": "refers to: syncope", "test system": "human, multiple ascending dose", "setting": "oral, 25 mg, 12 days", "measurement": "subjects with serious adverse event", "value": "1.6%"}
{"Substance": "Oc1ccc(C(c2ccc(O)cc2)(C(F)(F)F)C(F)(F)F)cc1", "test system": "female Hsd:Sprague Dawley rats, plasma", "setting": "intravenous, 34 mg/kg, free compound", "measurement": "beta half-life", "value": "5.15 h"}
{"Substance": "CCN(CC)CCNC(=O)c1c(C)[nH]c(/C=C2\\C(=O)Nc3ccc(F)cc32)c1C", "test system": "human, plasma", "setting": "oral, 20 mg/m2, day 14", "measurement": "minimum trough plasma concentration", "value": "26.9 ng/mL"}
{"Substance": "Cc1nc2cccc(OCC(C)(C)C(=O)NC(C)C)c2c(N)c1C(=O)O", "test system": "Sprague-Dawley rat both sexes, plasma", "setting": "dietary, 100 mg/kg/day, day 90", "measurement": "Cmax", "value": "162 ng/mL"}
{"Substance": "COc1cccc(-c2ccc(NC(=O)C3=C(C(=O)O)CCC3)c(F)c2)c1", "test system": "male healthy human, plasma", "setting": "oral, 50 mg daily, day 13-14, pre-dosed", "how to read": "relative to: day 0-1", "measurement": "AUC(0-24) accumulation ratio", "value": 1.58}
{"Substance": "O=C1CN(/N=C/c2ccc(-c3ccc([N+](=O)[O-])cc3)o2)C(O)=N1", "test system": "Sprague-Dawley rat, male, liver", "setting": "oral, 100 mg/kg, 6 h, single low dose", "how to read": "direction not given", "measurement": "hepatocyte vacuolization score", "value": 0}
{"Substance": "ACEQNPIYWARYAKWLFTTPLLLLKLALLVDADEGTG-OH (18F-labelled, C-acid)", "test": "reversed-phase C18 HPLC", "setting": "MeCN gradient in water with TFA", "measurement": "HPLC retention time", "value": "15.8 min"}
{"Substance": "COc1ccc(-c2oc3c(OC)c(OC)cc(O)c3c(=O)c2OC)cc1OC", "test system": "C57BL/6 mouse, male, feces", "setting": "oral, 1% w/w in diet, 6 weeks, orange peel extract diet", "how to read": "relative to: content in orange peel", "measurement": "tissue to peel content ratio", "value": "224%"}
{"Substance": "CC(C)=CCC[C@](C)(O[C@@H]1O[C@H](CO)[C@@H](O)[C@H](O)[C@H]1O)[C@H]1CC[C@]2(C)[C@@H]1[C@H](O)C[C@@H]1[C@@]3(C)CC[C@H](O)C(C)(C)[C@@H]3[C@@H](O[C@@H]3O[C@H](CO)[C@@H](O)[C@H](O)[C@H]3O[C@@H]3O[C@@H](C)[C@H](O)[C@@H](O)[C@H]3O)C[C@]12C", "test system": "rat, extracted tissue homogenate QC samples", "setting": "0.05 µg/mL, 24 h, 15 °C, autosampler", "measurement": "post-preparative stability accuracy", "value": "105 ± 5.6%"}
{"Substance": "COc1cc(/C=C/C(=O)CC(=O)/C=C/c2ccc(O)c(OC)c2)ccc1O", "test": "I-125 label", "test system": "C57BL/6J mouse, olfactory lobes", "setting": "intranasal vs intraperitoneal, 10 µg/mouse IN, 100 µg/mouse IP, 8 h", "how to read": "relative to: intranasal over intraperitoneal", "measurement": "brain uptake ratio", "value": 4.68}
{"Substance": "CC[C@H](C)[C@@H]1NC(=O)[C@H](Cc2ccc(O)cc2)NC(=O)[C@@H](N)CSSC[C@@H](C(=O)N2CCC[C@H]2C(=O)N[C@@H](CC(C)C)C(=O)NCC(N)=O)NC(=O)[C@H](CC(N)=O)NC(=O)[C@H](CCC(N)=O)NC1=O", "test": "microdialysis, radioimmunoassay", "test system": "knock-out male mice lacking compound, hippocampus extracellular fluid", "setting": "intraperitoneal, 12 µg total, time to half of Cmax", "measurement": "half-life", "value": "0.313 ± 0.0317 h"}
{"Substance": "CCCC[C@@H]1NC(=O)[C@@H](NC(=O)[C@H](CCC(=O)O)NC(=O)CNC(=O)CN2CCN(CC(=O)O)CCN(CC(=O)O)CCN(CC(=O)O)CC2)CCCCNC(=O)C[C@@H](C(N)=O)NC(=O)[C@H](C(C)C)NC(=O)[C@@H]2CCCN2C(=O)[C@H](CCCNC(=N)N)NC(=O)CNC(=O)[C@H](Cc2c[nH]c3ccccc23)NC(=O)[C@H](CCCNC(=N)N)NC(=O)[C@@H](Cc2ccccc2)NC(=O)[C@H](Cc2c[nH]cn2)NC(=O)[C@H](CCC(=O)O)NC1=O [indium-111 labelled]", "test system": "normal C57 mice, pancreas", "setting": "intravenous, 0.037 MBq, 4 h", "measurement": "tissue uptake", "value": "0.04 ± 0.03 %ID/g"}
{"Substance": "OC[C@H]1O[C@@H](c2ccc(F)c(Cc3cc4ccccc4s3)c2)[C@H](O)[C@@H](O)[C@@H]1O", "test system": "Wistar rat, male, kidney", "setting": "oral, dose not given, 24 h", "how to read": "relative to: kidney over plasma concentration", "measurement": "tissue/plasma ratio", "value": "301 ± 86.9"}
{"Substance": "CC(/C=C/C=C(\\C)C(=O)O)=C\\C=C\\C=C(C)\\C=C\\C=C(/C)C(=O)O", "test system": "female Wistar rat, plasma", "setting": "oral, 20 mg/kg", "measurement": "Tmax", "value": "~0.5 h"}
{"Substance": "Cc1ccc2[nH]c(=O)c(CC(=O)O)c(-c3ccccc3)c2c1", "test": "potentiometric, initial protocol", "setting": "neutral species", "measurement": "logP", "value": 3.97}
{"Substance": "Cn1c(-c2ccc(C(N)=O)cc2F)nnc1C(C)(C)Oc1c(F)cc(Cl)cc1F", "test system": "young non-Japanese adults, plasma", "setting": "oral, 50 mg single dose, day 1, high-dose multiple-dose study", "measurement": "half-life mean", "value": "13.4 h"}
{"Substance": "C[C@](N)(Cc1ccc(O)c(O)c1)C(=O)O", "test system": "supercritical carbon dioxide", "setting": "5 h, 343 K, 30 MPa, density 788.9 kg/m3", "measurement": "solubility", "value": "428 µg/mL"}
{"Substance": "O=C(O)[C@H]1/C(=C/CO)O[C@@H]2CC(=O)N21", "test system": "rat plasma", "setting": "80 ng/mL, three freeze-thaw cycles", "measurement": "measured concentration", "value": "83.1 ± 0.8 ng/mL"}
{"Substance": "COC(=O)[C@H]1[C@H]2C[C@@H]3c4[nH]c5cc(OC)ccc5c4CCN3C[C@H]2C[C@@H](OC(=O)c2cc(OC)c(OC)c(OC)c2)[C@@H]1OC", "test": "turbidimetry", "test system": "PBS", "setting": "2 h, 1% DMSO", "measurement": "kinetic solubility", "value": "19.1 µg/mL"}
{"Substance": "COc1ccc(-c2cc(=O)c3cc(OC)c(OC)c(OC)c3o2)cc1OC", "test system": "C57BL/6 mouse, male, testes", "setting": "oral, 1% w/w in diet, 6 weeks, orange peel extract diet", "how to read": "relative to: content in orange peel", "measurement": "tissue to peel content ratio", "value": "0.016%"}
{"Substance": "CN1CC[C@@H](NC(=O)Nc2ccc(C#N)cc2)C[C@@H]1c1nc2ccccc2[nH]1", "test system": "human, severe hepatic impairment, fasted, plasma", "setting": "oral, 100 mg single dose, geometric mean, fu × total", "measurement": "unbound Cmax", "value": "65 ng/mL"}
{"Substance": "COC(=O)N[C@H](C(=O)N[C@@H](Cc1ccccc1)[C@@H](O)CN(Cc1ccc(-c2ccccn2)cc1)NC(=O)[C@@H](NC(=O)OC)C(C)(C)C)C(C)(C)C", "test": "population PK model", "test system": "pregnant women, postpartum", "setting": "oral, median, with: with tenofovir", "measurement": "Vd/F", "value": "129 L"}
{"Substance": "Cc1cc(Oc2cncnc2)cc(C(=O)Nc2ccc(F)cn2)n1", "test system": "Sprague-Dawley rat, male, plasma", "setting": "oral, 10 mg/kg, 1 h", "measurement": "unbound plasma concentration", "value": "318 nM"}
{"Substance": "Oc1ccc(/C=C/c2cc(O)cc(O)c2)cc1", "test system": "male Sprague-Dawley rat, plasma", "setting": "intravenous, 10 mg/kg", "measurement": "AUC(0-inf)", "value": "1870 ng·h/mL"}
{"note": "Excerpt of the above:"}
{"Substance": "OC[C@H]1O[C@@H](c2ccc(F)c(Cc3cc4ccccc4s3)c2)[C@H](O)[C@@H](O)[C@@H]1O", "test system": "Wistar rat, male, kidney", "setting": "oral, dose not given, 24 h", "how to read": "relative to: kidney over plasma concentration", "measurement": "tissue/plasma ratio", "value": "301 ± 86.9"}
{"Substance": "CC(/C=C/C=C(\\C)C(=O)O)=C\\C=C\\C=C(C)\\C=C\\C=C(/C)C(=O)O", "test system": "female Wistar rat, plasma", "setting": "oral, 20 mg/kg", "measurement": "Tmax", "value": "~0.5 h"}
{"Substance": "Cc1ccc2[nH]c(=O)c(CC(=O)O)c(-c3ccccc3)c2c1", "test": "potentiometric, initial protocol", "setting": "neutral species", "measurement": "logP", "value": 3.97}
{"Substance": "Cn1c(-c2ccc(C(N)=O)cc2F)nnc1C(C)(C)Oc1c(F)cc(Cl)cc1F", "test system": "young non-Japanese adults, plasma", "setting": "oral, 50 mg single dose, day 1, high-dose multiple-dose study", "measurement": "half-life mean", "value": "13.4 h"}
{"Substance": "C[C@](N)(Cc1ccc(O)c(O)c1)C(=O)O", "test system": "supercritical carbon dioxide", "setting": "5 h, 343 K, 30 MPa, density 788.9 kg/m3", "measurement": "solubility", "value": "428 µg/mL"}
{"Substance": "O=C(O)[C@H]1/C(=C/CO)O[C@@H]2CC(=O)N21", "test system": "rat plasma", "setting": "80 ng/mL, three freeze-thaw cycles", "measurement": "measured concentration", "value": "83.1 ± 0.8 ng/mL"}
